Measured values collected from several papers.
Each numbered part is a random draw from the data of one study; scales do not carry over between parts. Several values in a cell are separate wells, animals, samples, runs or records.
Sequence of UniProt Q8IU85 (whole entry, looked up): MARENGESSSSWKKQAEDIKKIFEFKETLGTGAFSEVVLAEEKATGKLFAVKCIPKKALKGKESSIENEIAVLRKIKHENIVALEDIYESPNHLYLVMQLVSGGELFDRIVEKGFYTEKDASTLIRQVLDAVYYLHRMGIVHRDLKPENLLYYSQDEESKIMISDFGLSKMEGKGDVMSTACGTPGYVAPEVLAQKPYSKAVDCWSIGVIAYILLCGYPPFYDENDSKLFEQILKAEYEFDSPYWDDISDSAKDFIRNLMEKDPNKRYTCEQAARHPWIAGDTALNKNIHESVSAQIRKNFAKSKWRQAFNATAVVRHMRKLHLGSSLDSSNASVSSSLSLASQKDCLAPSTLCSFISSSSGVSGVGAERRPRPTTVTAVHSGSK
Sequence of UniProt O75460 (whole entry, looked up): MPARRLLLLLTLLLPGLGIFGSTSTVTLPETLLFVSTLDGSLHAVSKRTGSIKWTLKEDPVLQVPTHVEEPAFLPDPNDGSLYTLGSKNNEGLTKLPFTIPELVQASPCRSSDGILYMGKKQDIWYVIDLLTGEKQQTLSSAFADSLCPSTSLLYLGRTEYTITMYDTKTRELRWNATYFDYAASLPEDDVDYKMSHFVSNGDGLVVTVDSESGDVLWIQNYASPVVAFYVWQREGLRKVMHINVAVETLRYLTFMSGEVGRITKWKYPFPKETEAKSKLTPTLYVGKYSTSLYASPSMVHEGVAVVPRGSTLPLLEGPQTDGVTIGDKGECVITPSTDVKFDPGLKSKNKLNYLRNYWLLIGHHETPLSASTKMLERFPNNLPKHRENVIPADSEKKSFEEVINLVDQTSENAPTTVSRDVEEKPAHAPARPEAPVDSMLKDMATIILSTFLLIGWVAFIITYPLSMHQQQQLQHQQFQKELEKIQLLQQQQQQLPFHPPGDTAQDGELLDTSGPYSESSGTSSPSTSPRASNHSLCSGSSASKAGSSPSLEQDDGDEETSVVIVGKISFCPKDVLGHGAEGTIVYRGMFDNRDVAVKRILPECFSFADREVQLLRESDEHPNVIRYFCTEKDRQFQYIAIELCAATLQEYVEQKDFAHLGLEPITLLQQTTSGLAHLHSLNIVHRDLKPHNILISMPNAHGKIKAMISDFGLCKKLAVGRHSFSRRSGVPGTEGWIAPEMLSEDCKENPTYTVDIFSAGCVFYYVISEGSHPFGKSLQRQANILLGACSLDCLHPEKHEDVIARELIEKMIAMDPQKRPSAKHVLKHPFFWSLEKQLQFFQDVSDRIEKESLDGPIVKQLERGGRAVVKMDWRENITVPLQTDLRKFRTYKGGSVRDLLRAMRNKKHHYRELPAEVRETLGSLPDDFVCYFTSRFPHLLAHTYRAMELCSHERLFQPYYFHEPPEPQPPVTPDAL
Sequence of UniProt O14733 (whole entry, looked up): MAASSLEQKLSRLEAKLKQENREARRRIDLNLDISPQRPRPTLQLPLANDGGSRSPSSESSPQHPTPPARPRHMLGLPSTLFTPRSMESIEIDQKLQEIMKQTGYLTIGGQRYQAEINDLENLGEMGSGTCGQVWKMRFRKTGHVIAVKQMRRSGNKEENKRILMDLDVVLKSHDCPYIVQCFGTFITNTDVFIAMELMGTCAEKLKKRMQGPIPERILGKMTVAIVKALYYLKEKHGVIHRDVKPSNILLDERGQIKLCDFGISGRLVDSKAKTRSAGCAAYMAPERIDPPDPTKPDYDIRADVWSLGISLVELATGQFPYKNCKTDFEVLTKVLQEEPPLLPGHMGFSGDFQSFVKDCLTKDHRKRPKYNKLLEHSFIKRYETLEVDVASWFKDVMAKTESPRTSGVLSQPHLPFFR

Set 1
SMILES: O=C1CCC(N2Cc3cc(C4CCN(Cc5ccccc5)CC4)ccc3C2=O)C(=O)N1 (stereo not drawn)
Action: degrader
Method: HiBiT
Endpoint: remaining protein
IKZF4: Zinc finger protein Eos (IKZF4, Homo sapiens, UniProt Q9H2S9)
Sequence of UniProt Q9H2S9 (whole entry, looked up): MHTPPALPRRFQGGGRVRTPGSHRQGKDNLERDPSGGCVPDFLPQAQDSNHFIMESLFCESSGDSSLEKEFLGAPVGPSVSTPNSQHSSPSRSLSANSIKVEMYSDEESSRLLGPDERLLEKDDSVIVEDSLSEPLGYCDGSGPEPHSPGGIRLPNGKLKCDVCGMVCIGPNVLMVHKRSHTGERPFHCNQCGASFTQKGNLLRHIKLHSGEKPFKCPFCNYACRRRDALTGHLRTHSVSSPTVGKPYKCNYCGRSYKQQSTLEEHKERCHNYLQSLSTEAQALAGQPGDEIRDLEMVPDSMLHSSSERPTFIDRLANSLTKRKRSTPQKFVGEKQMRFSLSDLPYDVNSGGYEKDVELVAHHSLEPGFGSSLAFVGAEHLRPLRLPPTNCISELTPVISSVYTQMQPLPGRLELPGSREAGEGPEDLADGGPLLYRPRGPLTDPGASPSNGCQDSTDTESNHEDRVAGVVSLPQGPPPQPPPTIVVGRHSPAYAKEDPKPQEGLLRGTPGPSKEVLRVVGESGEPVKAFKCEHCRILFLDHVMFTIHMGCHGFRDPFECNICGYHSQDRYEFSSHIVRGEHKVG
DNA-binding protein Ikaros: DNA-binding protein Ikaros (Homo sapiens, UniProt Q13422)
Sequence of UniProt Q13422 (whole entry, looked up): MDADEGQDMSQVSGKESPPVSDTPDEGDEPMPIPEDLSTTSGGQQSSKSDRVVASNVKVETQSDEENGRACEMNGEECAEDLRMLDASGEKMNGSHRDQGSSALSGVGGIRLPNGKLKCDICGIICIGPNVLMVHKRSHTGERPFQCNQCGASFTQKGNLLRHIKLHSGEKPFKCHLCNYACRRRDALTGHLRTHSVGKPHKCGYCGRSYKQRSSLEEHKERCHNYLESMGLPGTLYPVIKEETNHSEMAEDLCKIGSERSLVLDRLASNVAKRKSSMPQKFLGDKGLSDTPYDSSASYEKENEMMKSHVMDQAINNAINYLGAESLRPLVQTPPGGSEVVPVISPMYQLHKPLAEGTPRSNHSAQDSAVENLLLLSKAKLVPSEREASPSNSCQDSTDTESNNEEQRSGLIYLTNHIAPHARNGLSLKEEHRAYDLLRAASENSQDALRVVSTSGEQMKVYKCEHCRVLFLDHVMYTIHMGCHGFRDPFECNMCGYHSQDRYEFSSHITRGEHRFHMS
GSPT1: Eukaryotic peptide chain release factor GTP-binding subunit ERF3A (GSPT1, Homo sapiens, UniProt P15170)
Sequence of UniProt P15170 (whole entry, looked up): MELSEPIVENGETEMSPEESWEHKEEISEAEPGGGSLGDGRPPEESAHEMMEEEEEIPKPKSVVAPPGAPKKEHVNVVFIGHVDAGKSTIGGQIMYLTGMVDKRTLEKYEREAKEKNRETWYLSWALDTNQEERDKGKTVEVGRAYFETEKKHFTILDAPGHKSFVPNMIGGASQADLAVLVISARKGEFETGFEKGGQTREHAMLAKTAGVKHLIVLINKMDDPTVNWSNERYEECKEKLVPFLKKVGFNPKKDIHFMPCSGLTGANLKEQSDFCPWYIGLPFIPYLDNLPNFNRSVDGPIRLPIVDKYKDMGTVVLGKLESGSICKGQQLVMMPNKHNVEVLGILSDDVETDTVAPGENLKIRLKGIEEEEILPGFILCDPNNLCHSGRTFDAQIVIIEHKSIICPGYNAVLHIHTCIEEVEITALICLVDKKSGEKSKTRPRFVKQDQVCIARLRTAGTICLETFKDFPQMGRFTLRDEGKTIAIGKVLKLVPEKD
CSNK1A1: Casein kinase I isoform alpha (CSNK1A1, Homo sapiens, UniProt P48729)
Sequence of UniProt P48729 (whole entry, looked up): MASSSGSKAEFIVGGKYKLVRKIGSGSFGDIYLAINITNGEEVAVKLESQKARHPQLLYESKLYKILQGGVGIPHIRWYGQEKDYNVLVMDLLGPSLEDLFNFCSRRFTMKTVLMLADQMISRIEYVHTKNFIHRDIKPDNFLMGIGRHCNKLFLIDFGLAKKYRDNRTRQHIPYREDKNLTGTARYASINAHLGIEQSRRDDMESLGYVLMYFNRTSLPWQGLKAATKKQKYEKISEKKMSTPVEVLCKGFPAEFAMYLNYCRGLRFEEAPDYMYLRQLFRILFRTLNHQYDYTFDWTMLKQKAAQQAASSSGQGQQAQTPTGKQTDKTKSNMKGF
target = IKZF4; system = HEK293; setting = 0.004115 µM, 3 h; value = 115%
target = DNA-binding protein Ikaros; system = HEK293; setting = 10 µM; value = 105% and 95.5%
target = GSPT1; system = HEK293; setting = 0.0001694 µM; value = 110% and 111%
target = DNA-binding protein Ikaros; system = HEK293; setting = 3.333 µM; value = 92.1% and 87.9%
target = GSPT1; system = HEK293; setting = 3.333 µM, 6 h; value = 110%
target = CSNK1A1; system = HEK293 HiBiT-CK1α; setting = 4.572 nM; value = 98.6% and 86.7%
target = CSNK1A1; system = HEK293; setting = 1.111 µM, 6 h; value = 94.1%
target = IKZF4; system = HEK293; setting = 0.001372 µM, 6 h; value = 113%
target = CSNK1A1; system = HEK293; setting = 10 µM, 6 h; value = 94.7%
target = IKZF4; system = HEK293; setting = 0.1111 µM, 6 h; value = 118%
target = DNA-binding protein Ikaros; system = HEK293; setting = 3.333 µM, 6 h; value = 92.1%

Set 2
Structure (SMILES): CC#CC(=O)N1CCC[C@H]1c1nc(-c2ccc(C(=O)Nc3ccccn3)cc2)c2c(N)nccn12
Effect on: enzyme activity
Action: inhibitor
Tested at: 1 µM
Endpoint: inhibition
target = Protein kinase C theta type (PRKCQ, Homo sapiens, UniProt Q04759); value = 0%
target = Cyclin-dependent kinase 2 homolog (CRK2, Plasmodium falciparum, UniProt P61075); value = 3%
target = NUAK family SNF1-like kinase 2 (NUAK2, Homo sapiens, UniProt Q9H093); value = 11%
target = Serine/threonine-protein kinase 4 (STK4, Homo sapiens, UniProt Q13043); value = 0%
target = Fibroblast growth factor receptor 1 (FGFR1, Homo sapiens, UniProt P11362); value = 32%
target = RAC-alpha serine/threonine-protein kinase (AKT1, Homo sapiens, UniProt P31749); value = 0%
target = Serine/threonine-protein kinase/endoribonuclease IRE1 (ERN1, Homo sapiens, UniProt O75460); value = 51%
target = Serine/threonine-protein kinase WNK2 (WNK2, Homo sapiens, UniProt Q9Y3S1); value = 29%
target = Calcium/calmodulin-dependent protein kinase type 1D (CAMK1D, Homo sapiens, UniProt Q8IU85); value = 20%

Set 3
Target: PAS domain-containing serine/threonine-protein kinase (PASK, Homo sapiens, UniProt Q96RG2)
Sequence of UniProt Q96RG2 (whole entry, looked up): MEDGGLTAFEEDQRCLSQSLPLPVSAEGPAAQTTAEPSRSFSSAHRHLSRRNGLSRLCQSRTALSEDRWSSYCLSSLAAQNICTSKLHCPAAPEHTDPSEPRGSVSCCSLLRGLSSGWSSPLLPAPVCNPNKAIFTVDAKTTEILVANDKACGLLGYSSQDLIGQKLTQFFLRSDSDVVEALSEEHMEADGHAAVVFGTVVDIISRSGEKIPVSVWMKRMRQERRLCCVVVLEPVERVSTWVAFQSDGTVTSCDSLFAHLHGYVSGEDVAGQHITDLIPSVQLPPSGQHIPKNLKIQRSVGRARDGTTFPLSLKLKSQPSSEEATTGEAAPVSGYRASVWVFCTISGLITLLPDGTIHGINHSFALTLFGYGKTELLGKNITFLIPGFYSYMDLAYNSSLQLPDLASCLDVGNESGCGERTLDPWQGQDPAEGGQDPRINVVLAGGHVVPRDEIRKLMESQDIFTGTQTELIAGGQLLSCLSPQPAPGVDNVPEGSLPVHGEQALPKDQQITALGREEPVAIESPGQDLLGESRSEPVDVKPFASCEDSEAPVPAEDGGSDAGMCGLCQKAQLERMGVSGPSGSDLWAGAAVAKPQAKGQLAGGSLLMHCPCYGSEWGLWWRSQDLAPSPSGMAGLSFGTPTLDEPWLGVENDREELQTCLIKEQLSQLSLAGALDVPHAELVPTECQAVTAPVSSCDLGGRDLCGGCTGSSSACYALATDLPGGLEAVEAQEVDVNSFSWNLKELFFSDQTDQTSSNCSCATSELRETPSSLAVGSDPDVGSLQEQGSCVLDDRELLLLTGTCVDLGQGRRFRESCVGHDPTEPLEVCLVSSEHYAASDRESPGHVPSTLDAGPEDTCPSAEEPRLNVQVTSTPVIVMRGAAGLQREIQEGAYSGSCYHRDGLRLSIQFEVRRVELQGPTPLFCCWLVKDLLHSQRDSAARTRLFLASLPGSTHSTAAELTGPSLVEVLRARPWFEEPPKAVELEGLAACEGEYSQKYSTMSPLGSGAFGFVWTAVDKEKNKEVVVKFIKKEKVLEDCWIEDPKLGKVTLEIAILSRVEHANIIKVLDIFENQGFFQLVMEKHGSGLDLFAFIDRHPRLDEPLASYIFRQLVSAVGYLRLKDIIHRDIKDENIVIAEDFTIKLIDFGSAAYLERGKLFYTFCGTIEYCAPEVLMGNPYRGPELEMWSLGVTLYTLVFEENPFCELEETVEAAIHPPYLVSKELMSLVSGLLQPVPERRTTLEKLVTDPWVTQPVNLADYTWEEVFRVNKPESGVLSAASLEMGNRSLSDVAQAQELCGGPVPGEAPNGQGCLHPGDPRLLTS
Effect on: enzyme activity
Action: inhibitor
Tested at: 0.5 µM
Reference: control
Endpoint: remaining activity
Compound = Oc1ccc(-c2nc(-c3ccncc3)c(-c3ccc(F)cc3)[nH]2)cc1; value = 79.3%
Compound = Nc1ncnc2n[nH]c(Nc3ccc(F)cc3)c12; value = 91.8%
Compound = O=C(Nc1cccc(Nc2cc(Nc3cccc(C(F)(F)F)c3)ncn2)c1)C1CC1; value = 98.3%
Compound = CCOC(=O)c1c(C)[nH]c(/C=C2\C(=O)Nc3ccccc32)c1C; value = 91.4%
Compound = O=C(O)c1ccc2c3c1cccc3c(=O)n1c3ccccc3nc21; value = 106%
Compound = CC(C)[C@H](CO)Nc1nc(Nc2cc(N)cc(Cl)c2)c2ncn(C(C)C)c2n1; value = 106%
Compound = Cc1cccc(-c2[nH]c(C(C)(C)C)nc2-c2ccc3c(c2)OCO3)n1; value = 78.9%
Compound = O=c1c2ccccc2[nH]c(=S)n1CCN1CCC(=C(c2ccc(F)cc2)c2ccc(F)cc2)CC1; value = 99%
Compound = Cc1ccc(NC(=O)c2ccc(CN3CCN(C)CC3)cc2)cc1Nc1nc(-c2cccnc2)cs1; value = 103%
Compound = O=C1NC(=O)C(c2cn(CCCn3ccnc3)c3ccccc23)=C1Nc1ccccc1; value = 98%
Compound = CN(C)c1ccc(C=C2C(=O)Nc3ccccc32)cc1; value = 95%
Compound = COc1ccc(OC)c2c(=S)c3ccccc3[nH]c12; value = 90.1%
Compound = O=C1NC(=O)C(c2cn(CCCO)c3ncccc23)=C1c1cnccn1; value = 97.1%
Compound = Cc1nc(-c2ccccc2)c(-c2ccncc2)o1; value = 98.1%
Compound = COc1cc2nccc(Oc3ccc(NC(=S)NC(=O)c4ccccc4C)cc3)c2cc1OC; value = 93.6%
Compound = COc1cc2ncnc(Nc3ccc(Oc4ccccc4)cc3)c2cc1OC; value = 104%

Set 4
Compound: Nc1c(C(=O)NCc2ccc(C(=O)NCCCC3CCCCC3)cc2)cnn1-c1ccccc1
Effect on: cell-free assay
Method: competition with immobilised ligand
Tested at: 0.1 µM
Endpoint: remaining binding
target = 5'-AMP-activated protein kinase catalytic subunit alpha-2 (PRKAA2, Homo sapiens, UniProt P54646); value = 100%
target = Myosin-IIIa (MYO3A, Homo sapiens, UniProt Q8NEV4); value = 100%
target = Dual specificity mitogen-activated protein kinase kinase 7 (MAP2K7, Homo sapiens, UniProt O14733); value = 99%
target = Myotonin-protein kinase (DMPK, Homo sapiens, UniProt Q09013); value = 77%
target = Calcium/calmodulin-dependent protein kinase kinase 1 (CAMKK1, Homo sapiens, UniProt Q8N5S9); value = 100%
target = Interleukin-1 receptor-associated kinase 3 (IRAK3, Homo sapiens, UniProt Q9Y616); value = 94%
target = Mitogen-activated protein kinase kinase kinase kinase 1 (MAP4K1, Homo sapiens, UniProt Q92918); value = 99%
target = Mitogen-activated protein kinase 1 (MAPK1, Homo sapiens, UniProt P28482); value = 100%
target = Beta-adrenergic receptor kinase 1 (GRK2, Homo sapiens, UniProt P25098); value = 100%
